Measured values from different studies.
Numbered parts are unrelated; each lists some results of a single study. Positions count from the first letter of the parent shown.
Chain of UniProt P41143 (whole entry, looked up): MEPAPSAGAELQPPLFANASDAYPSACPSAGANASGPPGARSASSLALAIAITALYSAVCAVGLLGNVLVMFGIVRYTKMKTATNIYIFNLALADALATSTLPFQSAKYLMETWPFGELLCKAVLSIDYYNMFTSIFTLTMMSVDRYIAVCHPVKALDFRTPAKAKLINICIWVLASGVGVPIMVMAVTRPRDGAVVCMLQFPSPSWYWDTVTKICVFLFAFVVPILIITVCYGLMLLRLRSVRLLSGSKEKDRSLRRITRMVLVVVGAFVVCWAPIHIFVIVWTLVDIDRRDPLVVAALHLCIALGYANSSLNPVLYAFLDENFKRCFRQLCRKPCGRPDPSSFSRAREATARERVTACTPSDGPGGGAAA

Block 1
Target: HLA class I histocompatibility antigen, A alpha chain, allele A*25:01 (Homo sapiens, UniProt P04439)
Observed: peptide-MHC binding
Molecule type: peptide
Concentration: concentration not given
Under binding, `ATEDPSSGY` is recorded as “inactive”.
Under binding, `ELFARSSDPR` is recorded as “inactive”.
`LPRERFRKT` — result for binding: “inactive”.
Under binding, `RMILPMSRAFR` is recorded as “inactive”.
`STNTLPTEY`: binding “inactive”.
For `YYLIKYLHV`, binding read “inactive”.
`RAFWGQVQK` — result for binding: “inactive”.
`VSDFRKEFY`: binding “inactive”.

Block 2
Target: UBE2A UBC core domain (UniProt P49459)
Chain of UniProt P49459 (whole entry, looked up): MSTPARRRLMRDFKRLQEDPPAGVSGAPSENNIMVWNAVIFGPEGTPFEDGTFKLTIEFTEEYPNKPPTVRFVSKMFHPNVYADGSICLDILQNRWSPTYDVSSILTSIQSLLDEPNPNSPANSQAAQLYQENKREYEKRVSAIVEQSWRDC
Technique: yeast two-hybrid
Sample: yeast
Notes: mostly zero background
Reference: not given
Reading: higher = stronger interaction
B1: HLTF RING domain (UniProt Q14527); chain LILSSGSDEECAICLDSLTVPVITHCAHVFCKPCICQVIQNEQPHAKCPLCRNDIHEDNLLE
B2: ARIH2 RING domain (UniProt O95376); chain HVPTSHPPHHCAVCMQFVRKENLLSLACQHQFCRSCWEQHCSVLVKDGVGVGVSCMAQDCPLRTPEDFVF
B3: RUFY1 RING domain (UniProt Q96T51); chain QALKGHAWLKDDEATHCRQCEKEFSISRRKHHCRNCGHIFCNTCSSNELALPSYPKPVRVCDSCHTLLLQRCSSTAS
B4: MARCHF1 RING domain (UniProt Q8TCQ1); chain TAPRSQSRLSVCPSTQDICRICHCEGDEESPLITPCRCTGTLRFVHQSCLHQWIKSSDTRCCELCKYDFIMETKLKPLRKWE
B5: TRIM41 RING domain (UniProt Q8WV44); chain PVQTLQEEAVCAICLDYFTDPVSIGCGHNFCRVCVTQLWGGEDEEDRDELDREEEEEDGEEE
B6: RNF6 RING domain (UniProt Q9Y252); chain NSIDSELGKICSVCISDYVTGNKLRQLPCMHEFHIHCIDRWLSENCTCPICRQPVLGSNIAN
Under “lacZ reporter activity”, `EIKEYKARLTCPCCNTRKKDAVLTKCFHVFCFECVRGRYEARQRKCPKCNAAFGAHDFHR (RNF40 RING domain (UniProt O75150))` is recorded as 0.
Under “lacZ reporter activity”, `B1 (HLTF RING domain)` is recorded as 0.
For `ASEEEFQFLRCQQCQAEAKCPKLLPCLHTLCSGCLEASGMQCPICQAPWPLGADTP (PML RING domain (UniProt P29590))`, “lacZ reporter activity” read 0.
`B2 (ARIH2 RING domain)`: “lacZ reporter activity” 0.
`B3 (RUFY1 RING domain)`: “lacZ reporter activity” 0.
Under “lacZ reporter activity”, `B4 (MARCHF1 RING domain)` is recorded as 0.
For `B5 (TRIM41 RING domain)`, “lacZ reporter activity” read 0.
`B6 (RNF6 RING domain)` — result for “lacZ reporter activity”: 0.

Block 3
Target: CCNE1, cyclin fold, Cln2 fusion (human)
Technique: yeast growth competition, sequencing
Sample: yeast
Notes: strong parent motif
Reference: not given
Reading: higher = stronger binding
Parent: viral docking peptide; YKVKRRLVFGADD; partner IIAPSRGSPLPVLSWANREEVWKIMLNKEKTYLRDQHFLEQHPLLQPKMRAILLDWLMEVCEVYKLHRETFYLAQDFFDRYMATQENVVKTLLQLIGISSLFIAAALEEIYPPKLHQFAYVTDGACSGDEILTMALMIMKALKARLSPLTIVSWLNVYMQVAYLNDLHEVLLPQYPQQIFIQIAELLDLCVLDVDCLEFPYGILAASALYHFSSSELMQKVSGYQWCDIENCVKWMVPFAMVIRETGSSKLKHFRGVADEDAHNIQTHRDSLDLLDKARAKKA
`YKVKRMLVFGADD [R6M]` — result for “normalised enrichment score”: 3.73.
`YKVKRRLTFGADD [V8T]`: “normalised enrichment score” 6.25.
`YKVKRRLVFGAGD [D12G]` — result for “normalised enrichment score”: 5.33.
For `YKVKRRLVFGARD [D12R]`, “normalised enrichment score” read 3.23.
For `YKVKARLVFGADD [R5A]`, “normalised enrichment score” read 0.569.
`YKVKRRLVFGAFD [D12F]` — result for “normalised enrichment score”: 4.96.
For `YKVKRRPVFGADD [L7P]`, “normalised enrichment score” read -0.047.
Under “normalised enrichment score”, `YKVKHRLVFGADD [R5H]` is recorded as 0.28.

Single results of other studies
C[C@@H]1CN(c2cc(-c3nn(C)c4ccc(OC5(C)CC5)cc34)ncn2)C[C@H](C)O1 has an inhibition of 23.3% (Delta-type opioid receptor (OPRD1, Homo sapiens, UniProt P41143); binding, radioligand binding; 10 µM).

Repeated from above (block 3):
`YKVKRRLVFGAFD [D12F]` — result for “normalised enrichment score”: 4.96.
